Experimental data collected from several papers.
Compare with care: the assays were run in different laboratories. ± marks the error that the study gave.
Chain of UniProt P10398 (whole entry, looked up): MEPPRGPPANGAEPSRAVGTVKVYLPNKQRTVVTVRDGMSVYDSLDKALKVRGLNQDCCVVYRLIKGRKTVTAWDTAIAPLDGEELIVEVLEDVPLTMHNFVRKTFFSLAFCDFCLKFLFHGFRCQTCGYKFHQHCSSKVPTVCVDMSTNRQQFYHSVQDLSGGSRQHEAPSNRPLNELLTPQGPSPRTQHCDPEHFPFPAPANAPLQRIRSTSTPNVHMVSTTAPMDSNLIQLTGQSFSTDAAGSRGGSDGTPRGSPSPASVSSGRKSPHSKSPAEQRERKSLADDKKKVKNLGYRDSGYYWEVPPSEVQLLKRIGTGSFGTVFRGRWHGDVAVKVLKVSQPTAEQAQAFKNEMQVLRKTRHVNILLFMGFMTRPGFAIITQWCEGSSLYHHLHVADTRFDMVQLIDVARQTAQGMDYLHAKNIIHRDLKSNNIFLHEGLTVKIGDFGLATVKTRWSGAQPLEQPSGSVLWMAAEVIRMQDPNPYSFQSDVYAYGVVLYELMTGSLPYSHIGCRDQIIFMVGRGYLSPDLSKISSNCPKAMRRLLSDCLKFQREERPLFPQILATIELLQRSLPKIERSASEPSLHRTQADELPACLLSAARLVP

Structure (SMILES)	target or system	test	system	conditions	scale	quantity	value
CC[C@H](C)[C@H](NC(=O)[C@H](CCCCN)NC(=O)CNC(=O)[C@H](CC(C)C)NC(=O)[C@H](Cc1ccccc1)NC(=O)[C@H](CCCCN)NC(=O)[C@H](CO)NC(=O)[C@H](Cc1ccccc1)NC(=O)[C@H](Cc1c[nH]c2ccccc12)NC(=O)[C@H](CCC(N)=O)NC(=O)[C@@H](NC(=O)[C@H](Cc1ccccc1)NC(=O)CCCCCNC(=O)CN1CCN(CC(=O)O)CCN(CC(=O)O)CCN(CC(=O)O)CC1)C(C)C)C(=O)N[C@@H](CCC(=O)O)C(=O)N1CCC[C@H]1C(=O)N[C@@H](CC(=O)O)C(=O)N[C@H](C(=O)N[C@@H](CO)C(=O)N[C@@H](CCC(N)=O)C(=O)N[C@H](C(=O)N[C@@H](CCC(N)=O)C(=O)N[C@@H](CC(=O)O)C(=O)N1CCC[C@H]1C(=O)N[C@@H](CC(N)=O)C(=O)N[C@@H](CC(=O)O)C(=O)N[C@@H](CCC(N)=O)C(=O)N[C@@H](Cc1ccc(O)cc1)C(=O)N[C@@H](CCC(=O)O)C(=O)N1CCC[C@H]1C(=O)N[C@@H](Cc1ccccc1)C(=O)O)C(C)C)C(C)C [copper-64 labelled]			C57BL/6 mice, heart	together with: LPS 0.1 mg/kg intratracheal		tissue uptake	1.29 ± 0.3 %ID/g
CN1Cc2cc(Cl)ccc2-n2c(nnc2C2CCN(c3cccc([18F])n3)CC2)C1			C57BL/6 mouse male, brain	intravenous, dose not given, 5 min, together with: blocking agent 10 mg/kg		tissue uptake	2.83 ± 0.95 %ID/g
CS(C)(=O)=Nc1ccc(-c2ccc(-c3nc4cc(O[C@@H]5CO[C@H]6[C@@H]5OC[C@H]6O)[nH]c4cc3F)cc2)cc1	ARAF (Homo sapiens, UniProt P10398)	enzyme activity, inhibitor		10 µM		inhibition	21%
CC(C)(C)C(=O)OCOP(=O)(OCOC(=O)C(C)(C)C)C1CCCN(O)C1=O (stereo not drawn)	LOX IMVI					Log10GI50	-6.33 log M
CC[C@H](C)[C@H](NC(=O)[C@H](CCCNC(=N)N)NC(=O)[C@H](CCCCN)NC(=O)[C@H](Cc1ccc(O)cc1)NC(=O)[C@H](CC(=O)O)NC(=O)[C@H](C)NC(=O)CNC(=O)CCOCCOCCOCCNC(=O)CN1CCN(CC(=O)O)CCN(CC(=O)O)CCN(CC(=O)O)CC1)C(=O)N[C@H](C(=O)N[C@@H](CC(C)C)C(=O)N[C@@H](CCCCN)C(=O)N[C@H](C(=O)N[C@@H](CC(N)=O)C(N)=O)C(C)C)[C@@H](C)O [copper-64 labelled]		ex vivo gamma counting	C57BL/6J male mice, B16-F10 tumour, blood	intravenous, 1.85 MBq, 20 min		tissue uptake	2.31 ± 1.01 %ID/g
CC(C)C[C@@H](NC(=O)[C@@H](CCCNC(=N)N)NC(=O)[C@@H](Cc1c[nH]cn1)NC(=O)[C@@H](Cc1c[nH]c2ccccc12)NC(=O)[C@@H](Cc1c[nH]cn1)NC(=O)[C@@H](Cc1ccccc1)NC(=O)[C@H](NC(=O)[C@@H](Cc1ccc(O)cc1)NC(=O)CNC(=O)CNC(=O)CCOCCOCCOCCNC(=O)CN1CCN(CC(=O)O)CCN(CC(=O)O)CC1)[C@H](C)O)C(=O)N[C@H](CC(N)=O)C(=O)N1CCC[C@@H]1C(=O)O [gallium-68 labelled]		gamma counting	C57BL/6 mice, male, muscle	intravenous, 1.85 MBq, 60 min		tissue uptake	0.45 ± 0.06 %ID/g
CSCC[C@H](NC(=O)CNC(=O)[C@H](CCCCN)NC(=O)[C@H](CC(C)C)NC(=O)[C@@H]1CCCN1C(=O)[C@H](CO)NC(=O)[C@H](Cc1c[nH]cn1)NC(=O)[C@H](Cc1c[nH]c2ccccc12)NC(=O)[C@H](CCCNC(=N)N)NC(=O)[C@H](CC(C)C)NC(=O)[C@H](CCCNC(=N)N)NC(=O)[C@H](Cc1c[nH]c2ccccc12)NC(=O)[C@H](CS)NC(=O)CCCCCNC(=O)CN1CCN(CC(=O)O)CCN(CC(=O)O)CCN(CC(=O)O)CC1)C(=O)O [copper-64 labelled]		PET	C57BL/6J mice, B16-F10 tumour, tumor	intravenous, 18 h		tissue uptake	1.93 ± 0.1 %ID/g
COc1ccccc1-c1n[nH]c2nc(NC3CCN(C(=O)Cc4ccc(F)cc4F)CC3)ncc12		bead binding, competition bead pull-down, item: LMJF.21.0810	Leishmania donovani axenic amastigote extract	10 µM	reference: vehicle	relative abundance	1.03
C[C@H](O)[C@@H](NC(=O)[C@H]1CCCN1C(=O)[C@@H](CCCCN)NC(=O)[C@@H](CO)NC(=O)[C@@H](Cc1ccc(O)cc1)NC(=O)[C@@H](CC(N)=O)NC(=O)CCOCCOCCOCCNC(=O)CN1CCN(CC(=O)O)CCN(CC(=O)O)CCN(CC(=O)O)CC1)C(=O)N[C@H](CC(=O)O)C(=O)N[C@H](CCCNC(=N)N)C(=O)N[C@H](CCC(N)=O)C(=O)N[C@H](Cc1ccc(O)cc1)C(=O)N[C@H](Cc1c[nH]cn1)C(=O)N[C@H](Cc1ccccc1)C(N)=O [copper-64 labelled]			C57BL/6J mice, thymus	intravenous, 1.85 MBq, 0.3333 h, radiolabelled		tissue uptake	0.72 ± 0.17 %ID/g
CCCC[C@H]1C(=O)N(C)[C@@H](CCCC)C(=O)N[C@@H](CCCNC(=O)CN2CCN(CC(=O)O)CCN(CC(=O)O)CCN(CC(=O)O)CC2)C(=O)N[C@H](C(=O)NCC(N)=O)CSCC(=O)N[C@@H](Cc2ccc(O)cc2)C(=O)N(C)[C@@H](C)C(=O)N[C@@H](CC(N)=O)C(=O)N2CCC[C@H]2C(=O)N[C@@H](Cc2c[nH]cn2)C(=O)N[C@@H](CC(C)C)C(=O)N(C)CC(=O)N[C@@H](Cc2c[nH]c3ccccc23)C(=O)N[C@@H](CO)C(=O)N[C@@H](Cc2c[nH]c3ccccc23)C(=O)N1C [gallium-68 labelled]			NOD/SCID mice with CHO-hPD-L1 xenograft, liver	60 min post injection		tissue uptake	12.6 ± 1.06 %ID/g
O=C1NC2(CC2)COc2ncc(F)cc2[C@H]2COCCN2c2ccn3ncc1c3n2			Sprague-Dawley rat, male, adrenals	oral, 5 mg/kg/day, 4 weeks, end of treatment		organ-to-brain weight ratio	2.9 ± 0.32%
CC[C@H](C)[C@H](NC(=O)[C@H](CCCNC(=N)N)NC(=O)[C@H](CCCCN)NC(=O)[C@H](Cc1ccc(O)cc1)NC(=O)[C@H](CC(=O)O)NC(=O)[C@H](C)NC(=O)CNC(=O)CCOCCOCCOCCNC(=O)CN1CCN(CC(=O)O)CCN(CC(=O)O)CCN(CC(=O)O)CC1)C(=O)N[C@H](C(=O)N[C@H](C(=O)N[C@@H](CCCCN)C(=O)N[C@H](C(=O)N[C@@H](CC(N)=O)C(N)=O)C(C)C)C(C)C)[C@@H](C)O [copper-64 labelled]		ex vivo gamma counting	C57BL/6J male mice, B16-F10 tumour, blood	intravenous, 1.85 MBq, 20 min		tissue uptake	3.37 ± 0.27 %ID/g

Excerpt of the above:
Structure (SMILES)	target or system	test	system	conditions	scale	quantity	value
O=C1NC2(CC2)COc2ncc(F)cc2[C@H]2COCCN2c2ccn3ncc1c3n2			Sprague-Dawley rat, male, adrenals	oral, 5 mg/kg/day, 4 weeks, end of treatment		organ-to-brain weight ratio	2.9 ± 0.32%
